Results pooled from the literature.
Parts stem from different laboratories: compare values within a part only.

Study 1
Target: Histone acetyltransferase KAT6A, winged helix 2, GST fusion (KAT6A, Homo sapiens, UniProt Q92794, residues 85-181)
Method: protein binding microarray
Molecule type: double-stranded DNA, one strand shown
Sample: in vitro
Concentration: not given
Setting: 8-mer, flanks averaged, mean of 2 arrays, mostly near background
Reference: not given
Reading: higher = stronger binding
Endpoint: E-score
Construct (chain): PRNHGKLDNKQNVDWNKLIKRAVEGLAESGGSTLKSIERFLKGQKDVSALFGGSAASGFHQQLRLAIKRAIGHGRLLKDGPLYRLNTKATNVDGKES
TTCTTAAA: -0.0214
ATAGCGAA: 0.065
ATCGCCAG: 0.106
CCTTATAG: 0.0137
AGTTTAGC: 0.0628
TGCTGCAA: 0.188
ACCAACGT: -0.196
GCCCTGTA: -0.145
AACAGGGG: 0.0778
AAGGGGTA: -0.208
ATCACATA: 0.0396
CATTACGG: -0.0848
CTACATCA: -0.171
CAAAGCAA: 0.273
AACAACTG: -0.0822
TGATTCAA: -0.00136
AACTAGCG: -0.061
AAACTTCT: 0.208
CAGCGAAG: 0.0843
AAACGGCC: 0.0859

Study 2
Target: RNA binding protein fox-1 homolog 2, RRM domain, GST-SBP tag (RBFOX2, Homo sapiens, UniProt O43251-10, residues 100-194)
Method: RNA Bind-n-Seq
Molecule type: RNA
Sample: in vitro
Concentration: 365 nM
Setting: natural RNA segment, single round, ends assumed
Reference: no-protein control
Reading: higher = stronger binding
Endpoint: RBNS enrichment (R)
Construct (chain): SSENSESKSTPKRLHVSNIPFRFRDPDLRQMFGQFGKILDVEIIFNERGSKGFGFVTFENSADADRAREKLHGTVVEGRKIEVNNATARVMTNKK
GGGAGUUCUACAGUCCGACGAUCUGUCUUCACUUUUGAUAUAUAAACAGGUAAAUAUGUUUUUUAAAAAAUACUAAAUAUAGAGAAUAUGAAACAAAAUUGGUUGCUUGUUGCCUUCUGUGUCUUCUCAAGGAUGGAAUUCUCGGGUGCCAA: 1.04
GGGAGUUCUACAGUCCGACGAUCAGAGUGUGGUUCCUUCUGAUGGGGAGAAAGGGCAAAUUAUUUUAAUAUUUUGUAUUUUCACCUUUAUAAACAUGAAUCCUCAGGGGUGAAGAACUGUUUGCAUAAUUUUCUGGAAUUCUCGGGUGCCAA: 0.918
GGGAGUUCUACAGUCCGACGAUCCCAUACAAAUAACUCAGCACACAAGUGACCCAGGACAUAUGCCUGCCAAAGGGAUGUGUUAGAAGGCUGCCUUCUCAUGCGCAUUGUCACUUGGAUCUUGUGGUGAGGACUGGAAUUCUCGGGUGCCAA: 0.287
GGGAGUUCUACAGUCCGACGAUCUCUGCAGCUUUCUGUGUAAGGCCCGUGUACUCCCACUGGGCAGGGUGAGGACCAAAAAUCUGAAACUCUUAUGAAUCUGACAUAUUAUAUGGAAAUUAUAUCUUGUGACCUGGAAUUCUCGGGUGCCAA: 0.472
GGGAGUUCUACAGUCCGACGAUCUGGGCACUGCUUUUUCUUACUAAUGUGGUAGAUCUACACGAACAUUCUAGGCUGUUCUGCUCAGAGCGAGGAACCACUGCUCCUCAAUGGGGAGGGAACAUACCACCCAGUGGAAUUCUCGGGUGCCAA: 0.22
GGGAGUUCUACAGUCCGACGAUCGGAAUUUUCACCUAAGAGGGAUAACUUGUUGCUUCCAAUGAAUGGCUCCCACUCUCGUGGGUGCAAAAGCGGCAGCAAAAAGCAGCCAUUUACUUGGGUACUUAAGAGUUUGGAAUUCUCGGGUGCCAA: 0.214
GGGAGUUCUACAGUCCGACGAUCCGUGGUGGCAUGUCCCUGUAAUCUCAGCUACCCGGGAGGCUCAGGCAGGAGAAUCGCUGGAACCCAGGAGGCAGAGGCUGCCGUUAGCUGAGAUCGUGCUCCUGCACUCCUGGAAUUCUCGGGUGCCAA: 0.978
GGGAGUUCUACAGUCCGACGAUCAAUUACGGAUGUAAUUCUGUGUAUCUUGCUGUGACUCCGAAGACUGUAGUACUGGUGUCAUGGAAAUAUAUGUUAUUUCCACAGUCAUUUCAUUAAAGAUGAAAACUUUAUGGAAUUCUCGGGUGCCAA: 0.355
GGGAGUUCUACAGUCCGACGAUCUUUAGCCAUUUCUCAUUUUUUUCCUCAAAUUUUACCUACUGAGGCUCAAGCCUUCACAGUGAGCUGAUGGUCUCUACAGGGAGGGGAGUCUAGGGAAUUUAUUUGGUAUUUGGAAUUCUCGGGUGCCAA: 0.409
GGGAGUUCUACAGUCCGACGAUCCCAGUAUAUUUUUUCAUAACUCCAGUGCUCAGACCUAGAGUAAUAAAGCUUUUCUUACAGAAAACCAUCACAGCGACAUUACCUCAUGUUUGUAUGUUUAGUUUUGUGUCUGGAAUUCUCGGGUGCCAA: 0.762
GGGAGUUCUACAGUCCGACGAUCAUCGGACCAAAUAUAUUGAGACUUAGUUUUGAAUGGAGUCAUGUUCCUCUAAGGUGGUUCGAUGUGAGGCGACCUGAAGCUCAGCCCUCGGGAAGCUUCUUGUGUCUGGAUGGAAUUCUCGGGUGCCAA: 0.61
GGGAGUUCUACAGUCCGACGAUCUCGCUCUGCAUGCUCUCUGUCAUACAGACAGGUAACCUAGUUCUGUGUUCACGUGGCCCCCGACUCCUCAGCCACAUCAAGUCUCCUAGACCACUGUGGACUCUAAACUGUGGAAUUCUCGGGUGCCAA: 0.305

Study 3
Target: Interferon regulatory factor 3, full length, phosphomimetic (IRF3, Homo sapiens, UniProt Q14653, residues 1-427, S386D/S396D/S398D/S402D/T404D/S405D)
Method: protein-binding microarray
Molecule type: double-stranded DNA, one strand shown
Sample: in vitro
Concentration: 2540 nM top
Setting: 60-bp whole probe
With: salmon DNA 0.4 mg/ml
Reference: random background probes
Reading: higher = stronger binding
Endpoint: fitted relative affinity
Constant ends, left off below: GCCTAGCAC … GTCTTGATTCGCTTGACGCTGCTG
Target sequence (chain): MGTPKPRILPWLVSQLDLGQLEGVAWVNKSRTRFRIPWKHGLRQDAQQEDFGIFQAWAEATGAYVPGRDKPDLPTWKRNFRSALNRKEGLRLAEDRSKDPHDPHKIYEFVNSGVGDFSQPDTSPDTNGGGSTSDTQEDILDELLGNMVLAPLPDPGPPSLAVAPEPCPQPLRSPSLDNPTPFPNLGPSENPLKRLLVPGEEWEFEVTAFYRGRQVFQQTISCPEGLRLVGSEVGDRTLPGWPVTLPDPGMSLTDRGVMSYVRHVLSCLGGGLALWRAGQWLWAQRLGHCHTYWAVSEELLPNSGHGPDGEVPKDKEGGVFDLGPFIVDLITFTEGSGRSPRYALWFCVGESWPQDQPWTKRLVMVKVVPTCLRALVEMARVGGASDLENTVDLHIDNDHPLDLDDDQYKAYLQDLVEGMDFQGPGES
GACGGTTTCCTTCTCCTGTCGTGCTAG: 10.4 z-score
TTAGGACTGGACATTGGGTTAGTGCTA: -0.858 z-score
TTAGGTTTCGACTATCGTTTAGTGCTA: 2.42 z-score
GACGGACCGGGTTTCGGGACGTGCTAG: 1.39 z-score
TCATAGTTTCTTTTCTTACTGTGCTAG: 5.81 z-score
GACGATCTCAAACTGGAGACGTGCTAG: 0.571 z-score
TTAGGAGTGGGGTTTCGGTTAGTGCTA: 2.56 z-score
TTAGACTTCGGGTATCGATTAGTGCTA: -0.295 z-score
TCATTTCCCAACATCAGACTGTGCTAG: 2.87 z-score
GACGATTTCGGGATTGGAGACGTGCTA: 1.98 z-score
GATGGTTTCGACACTGGGGACGTGCTA: 2.63 z-score
TTAGGTCTCCTTCTCCTCTAGTGCTAG: 4.19 z-score
TCATACATGAGTTTAGAACTGTGCTAG: -0.11 z-score
GACGGTATCCTTATCCTGATGTGCTAG: 4.87 z-score
GCAGTTGTCGTTCAAGGCTGGTGCTAG: 0.762 z-score
GACGGCATCGGGTATCGGGACGTGCTA: -0.617 z-score
TTAGATATCGGGTAGCGATTAGTGCTA: -0.291 z-score
GACCGTCTCGGTATCGGGACGTGCTAG: 2.41 z-score

Study 4
Target: RING finger protein unkempt homolog, zinc fingers 1-6, GST-SBP tag (UNK, Homo sapiens, UniProt Q9C0B0, residues 30-357)
Chain of UniProt Q9C0B0 (30-357, looked up): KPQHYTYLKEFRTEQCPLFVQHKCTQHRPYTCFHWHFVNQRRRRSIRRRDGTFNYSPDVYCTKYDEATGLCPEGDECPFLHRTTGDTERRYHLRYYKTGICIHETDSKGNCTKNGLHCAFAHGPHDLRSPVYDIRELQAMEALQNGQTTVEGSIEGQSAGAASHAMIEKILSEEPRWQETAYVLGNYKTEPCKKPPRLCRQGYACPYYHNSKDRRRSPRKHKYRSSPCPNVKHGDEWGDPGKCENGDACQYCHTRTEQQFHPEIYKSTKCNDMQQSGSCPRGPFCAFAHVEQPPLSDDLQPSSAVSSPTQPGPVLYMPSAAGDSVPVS
Method: RNA Bind-n-Seq
Molecule type: RNA
Sample: in vitro
Concentration: not given
Setting: RNA with constant flanks, human and mouse sites, ends assumed
Reference: input RNA pool
Reading: higher = stronger binding
Endpoint: bound/input enrichment
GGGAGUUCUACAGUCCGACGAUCACUGAAGACAAACUUUAUAAUCUCCUGCUCUUGAGAAUGUGCCGAUAUGUCAAAAUAUCUACUGAAACUGAAGAAACUGAAGGAUCCCUACACUGCUGUAAGGACCAAAAUAUUAAUGGGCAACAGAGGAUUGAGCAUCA: 0.0988 ratio
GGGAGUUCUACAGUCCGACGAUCUCAUGUAGUUCGUUUUUAAUUUCAAGCAAAUCUUAUUGUACUUGAAUGUGCCCUGUUUUGUUAGCACACCUAGACUUGCUGUAACUGUACUCAUGUCCCAGUAUGUACCUUCUUUCUAUGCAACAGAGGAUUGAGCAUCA: 1.78 ratio
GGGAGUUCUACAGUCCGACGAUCCGAGAAGUAGGAAUCCCUCCUGAGCAGUCCUUGGAAACUGCGAAAGCAGUGAAGGAACGCUACAGUUAUGUCUGCCCAGAUUUAGUAAAAGAGUUUAACAAGUAUGACACCGAUGGGUCACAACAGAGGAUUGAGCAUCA: 7.22 ratio
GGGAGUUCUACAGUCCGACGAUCAGUCAUCUAGAAAGAAUCUGGGCAACUGGUAACCAUGAGCGAAUGGAUGAAGAAAAGCCCCUUAGAAUGGGAAGAUUACGUUUAUAAAGAAGUGAGAGUGAUAGCCUGUGAGAAGGAGUACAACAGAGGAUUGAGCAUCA: 3.37 ratio
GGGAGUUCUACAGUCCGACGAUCGUGCUUCAGGUAGAUUCUGGUGCUAAUGCCACUGCCACAGCUCAGUGGUUUGGGGGCAAUAUUAGUGCUCCCUUCGAGGAUGCCUGCCCUCCUGAGGUGGAUUUUCUCAAGCAAGAUUGCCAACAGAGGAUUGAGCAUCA: 0.179 ratio
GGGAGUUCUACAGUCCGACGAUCUACAGCUUGCCUUUUUAAUGUUAGUCACAAUGUUUUUGUGGUUUGAAGUUUAGUUUAAUGUUAGUGCAGUGACGGGAAAUACACAUUAUGCUAAUGUUGAUGACAGAAUUUAUUUGGUUGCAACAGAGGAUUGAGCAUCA: 1.17 ratio
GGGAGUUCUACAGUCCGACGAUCUAUAUGACUGACGGGAUGCUACUUCGUGAAGCCAUGAACGAUCCCCUUCUGGAGCGUUAUGGUGUGAUAAUUCUUGAUGAGGCCCAUGAAAGAACAUUGGCUACAGAUAUUCUCAUGGGUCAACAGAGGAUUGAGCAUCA: 0.0787 ratio
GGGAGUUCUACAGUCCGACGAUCUCUUCAGAUAUGAAAAUGACUCAGCUAUUCACCAAAGUUGAAUCAGAAGAUACAAGUAGCCUCUUUGACAAACUUAAGAAGGAACCUGAUGCUUUAACUUUGCUGGCCCCAGCCGCUGGACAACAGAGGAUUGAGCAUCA: 0.228 ratio
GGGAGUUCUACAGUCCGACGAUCGUCCUUAGGCUUACAAUGUGCACUGAAUCGUUUCAUGUAAGAAUCCAAAGUGGACACCAUUAACAGGUCUUUGAAAUAUGCAUGUACUUUAUAUUUUCUAUAUUUGUAACUUUGCAUGUUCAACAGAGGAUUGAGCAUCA: 0.492 ratio
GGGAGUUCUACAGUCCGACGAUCUUUGGAGCCCCUCCUCAUGCUGGUGGAGGCAUUGGAUUGGAACGAGUUACUAUGCUGUUUCUGGGAUUGCAUAAUGUUCGUCAGACCUCCAUGUUCCCUCGUGAUCCCAAACGACUCACUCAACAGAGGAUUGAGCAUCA: 0.15 ratio
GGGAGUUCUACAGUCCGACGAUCAAGGAAACAAUGUUUAGUAGUUUGAGAAGCCACGGGAUGUACAGUUUGGUUAUCAGCCUUAAUAGGCUACACUAGUGGUAGGUAGUGUAGACAGAGAUGUAAAUGUGCUGUUCCAAAACUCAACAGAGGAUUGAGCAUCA: 0.829 ratio
